Measured values collected from several papers.
A part holds a random share of what one study measured.
UniProt P15056, sequence (whole entry, unmodified, looked up): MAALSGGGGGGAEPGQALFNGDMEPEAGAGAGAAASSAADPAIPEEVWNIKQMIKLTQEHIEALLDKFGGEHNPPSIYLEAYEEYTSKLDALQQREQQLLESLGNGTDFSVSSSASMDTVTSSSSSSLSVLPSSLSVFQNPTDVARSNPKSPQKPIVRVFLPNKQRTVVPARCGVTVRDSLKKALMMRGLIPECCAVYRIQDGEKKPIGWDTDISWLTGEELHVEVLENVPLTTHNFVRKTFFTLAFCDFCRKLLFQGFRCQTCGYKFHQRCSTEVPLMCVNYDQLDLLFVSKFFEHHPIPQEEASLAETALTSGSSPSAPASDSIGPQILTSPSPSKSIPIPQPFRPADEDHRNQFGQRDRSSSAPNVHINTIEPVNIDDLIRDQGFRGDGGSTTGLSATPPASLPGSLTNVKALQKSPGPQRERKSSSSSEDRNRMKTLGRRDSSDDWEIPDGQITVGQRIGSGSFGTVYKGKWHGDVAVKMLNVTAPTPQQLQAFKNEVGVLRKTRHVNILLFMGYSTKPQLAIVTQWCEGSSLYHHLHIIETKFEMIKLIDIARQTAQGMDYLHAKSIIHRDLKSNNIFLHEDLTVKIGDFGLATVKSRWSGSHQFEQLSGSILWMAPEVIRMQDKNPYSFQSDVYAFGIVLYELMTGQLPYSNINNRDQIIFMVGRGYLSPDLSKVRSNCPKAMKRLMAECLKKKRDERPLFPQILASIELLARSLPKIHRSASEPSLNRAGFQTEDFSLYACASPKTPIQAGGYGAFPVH
UniProt Q9UPE1, sequence (whole entry, looked up): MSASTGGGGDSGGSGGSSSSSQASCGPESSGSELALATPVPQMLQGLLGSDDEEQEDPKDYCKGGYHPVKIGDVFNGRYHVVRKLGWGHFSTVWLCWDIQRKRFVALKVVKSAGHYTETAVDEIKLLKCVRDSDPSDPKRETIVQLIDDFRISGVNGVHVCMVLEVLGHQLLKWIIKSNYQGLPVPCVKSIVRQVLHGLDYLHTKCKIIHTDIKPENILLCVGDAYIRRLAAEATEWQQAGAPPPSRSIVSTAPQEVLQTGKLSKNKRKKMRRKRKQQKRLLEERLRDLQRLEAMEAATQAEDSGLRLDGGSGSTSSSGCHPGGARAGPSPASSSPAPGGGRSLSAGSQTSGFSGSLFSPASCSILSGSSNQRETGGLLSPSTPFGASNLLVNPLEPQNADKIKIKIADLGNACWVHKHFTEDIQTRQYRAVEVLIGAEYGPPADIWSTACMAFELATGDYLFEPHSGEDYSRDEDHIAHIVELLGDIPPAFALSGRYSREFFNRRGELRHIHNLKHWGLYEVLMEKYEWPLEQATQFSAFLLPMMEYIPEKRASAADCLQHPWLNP
UniProt Q969T4, sequence (whole entry, looked up): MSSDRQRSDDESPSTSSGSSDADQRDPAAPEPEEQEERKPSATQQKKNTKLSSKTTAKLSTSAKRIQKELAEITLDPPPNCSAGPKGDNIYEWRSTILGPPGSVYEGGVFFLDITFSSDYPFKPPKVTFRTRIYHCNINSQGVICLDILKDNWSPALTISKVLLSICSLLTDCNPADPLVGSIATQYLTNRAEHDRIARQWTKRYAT
UniProt P63146, sequence (whole entry, looked up): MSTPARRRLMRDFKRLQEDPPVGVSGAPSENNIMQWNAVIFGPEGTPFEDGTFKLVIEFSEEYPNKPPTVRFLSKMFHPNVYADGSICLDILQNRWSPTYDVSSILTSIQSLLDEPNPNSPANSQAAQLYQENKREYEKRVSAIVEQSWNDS
UniProt P35916, sequence (whole entry, looked up): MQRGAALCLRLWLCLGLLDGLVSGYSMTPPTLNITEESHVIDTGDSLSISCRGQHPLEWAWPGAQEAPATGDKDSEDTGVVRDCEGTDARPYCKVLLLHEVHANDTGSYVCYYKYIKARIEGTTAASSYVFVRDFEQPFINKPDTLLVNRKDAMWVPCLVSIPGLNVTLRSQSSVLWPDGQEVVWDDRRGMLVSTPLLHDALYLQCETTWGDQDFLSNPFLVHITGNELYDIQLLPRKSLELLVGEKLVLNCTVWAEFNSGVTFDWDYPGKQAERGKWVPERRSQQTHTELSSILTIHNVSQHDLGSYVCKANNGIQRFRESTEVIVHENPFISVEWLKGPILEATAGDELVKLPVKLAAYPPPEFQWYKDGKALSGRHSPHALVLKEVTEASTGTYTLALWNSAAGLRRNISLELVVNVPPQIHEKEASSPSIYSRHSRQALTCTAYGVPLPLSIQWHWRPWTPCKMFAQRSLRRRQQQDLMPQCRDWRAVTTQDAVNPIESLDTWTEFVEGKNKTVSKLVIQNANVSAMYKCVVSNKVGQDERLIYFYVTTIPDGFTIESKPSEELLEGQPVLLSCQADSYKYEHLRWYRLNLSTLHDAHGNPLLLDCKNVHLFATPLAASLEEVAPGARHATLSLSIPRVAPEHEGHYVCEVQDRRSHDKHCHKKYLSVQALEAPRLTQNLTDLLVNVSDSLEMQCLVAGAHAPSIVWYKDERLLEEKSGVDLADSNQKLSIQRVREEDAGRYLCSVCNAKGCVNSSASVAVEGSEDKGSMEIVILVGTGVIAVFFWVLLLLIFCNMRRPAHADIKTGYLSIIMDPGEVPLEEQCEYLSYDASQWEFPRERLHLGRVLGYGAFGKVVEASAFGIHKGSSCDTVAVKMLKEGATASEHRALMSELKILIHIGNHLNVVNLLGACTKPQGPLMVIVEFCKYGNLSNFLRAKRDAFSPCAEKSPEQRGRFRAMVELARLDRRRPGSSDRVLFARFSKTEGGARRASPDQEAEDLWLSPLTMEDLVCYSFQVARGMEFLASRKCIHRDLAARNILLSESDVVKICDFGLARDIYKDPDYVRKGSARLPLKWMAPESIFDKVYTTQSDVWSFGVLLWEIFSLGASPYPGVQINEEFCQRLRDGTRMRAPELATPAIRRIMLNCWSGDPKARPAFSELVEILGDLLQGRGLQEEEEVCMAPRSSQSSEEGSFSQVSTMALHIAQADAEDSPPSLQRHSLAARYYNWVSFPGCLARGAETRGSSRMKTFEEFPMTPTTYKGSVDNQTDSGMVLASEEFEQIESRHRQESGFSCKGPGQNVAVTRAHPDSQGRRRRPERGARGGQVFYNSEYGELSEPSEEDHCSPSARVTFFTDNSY
UniProt Q712K3, sequence (whole entry, looked up): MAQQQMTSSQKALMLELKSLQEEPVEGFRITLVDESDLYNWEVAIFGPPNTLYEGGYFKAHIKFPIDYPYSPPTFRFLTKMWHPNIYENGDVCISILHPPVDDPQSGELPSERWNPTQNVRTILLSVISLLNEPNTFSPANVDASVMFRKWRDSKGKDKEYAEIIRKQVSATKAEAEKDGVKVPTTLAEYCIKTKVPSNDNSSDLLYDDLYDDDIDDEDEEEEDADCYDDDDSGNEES
UniProt P49840, sequence (whole entry, looked up): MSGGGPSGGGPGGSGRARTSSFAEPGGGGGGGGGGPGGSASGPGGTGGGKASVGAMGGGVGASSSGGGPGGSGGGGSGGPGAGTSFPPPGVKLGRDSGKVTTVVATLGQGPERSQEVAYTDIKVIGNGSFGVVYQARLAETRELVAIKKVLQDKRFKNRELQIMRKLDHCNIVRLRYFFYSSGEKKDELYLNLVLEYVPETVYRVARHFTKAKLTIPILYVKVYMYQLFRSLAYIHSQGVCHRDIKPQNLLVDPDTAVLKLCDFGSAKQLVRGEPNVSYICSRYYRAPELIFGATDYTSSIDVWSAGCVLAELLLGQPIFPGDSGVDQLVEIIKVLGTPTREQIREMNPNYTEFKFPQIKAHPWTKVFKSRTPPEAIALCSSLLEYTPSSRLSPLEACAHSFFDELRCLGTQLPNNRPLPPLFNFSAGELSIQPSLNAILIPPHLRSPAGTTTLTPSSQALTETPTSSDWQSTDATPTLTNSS
UniProt P68036, sequence (whole entry, looked up): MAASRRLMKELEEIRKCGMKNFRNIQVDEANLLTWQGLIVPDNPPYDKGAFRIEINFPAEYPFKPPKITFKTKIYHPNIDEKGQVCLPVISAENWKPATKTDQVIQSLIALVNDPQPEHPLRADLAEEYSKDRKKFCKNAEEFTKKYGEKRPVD
UniProt Q9Y385, sequence (whole entry, looked up): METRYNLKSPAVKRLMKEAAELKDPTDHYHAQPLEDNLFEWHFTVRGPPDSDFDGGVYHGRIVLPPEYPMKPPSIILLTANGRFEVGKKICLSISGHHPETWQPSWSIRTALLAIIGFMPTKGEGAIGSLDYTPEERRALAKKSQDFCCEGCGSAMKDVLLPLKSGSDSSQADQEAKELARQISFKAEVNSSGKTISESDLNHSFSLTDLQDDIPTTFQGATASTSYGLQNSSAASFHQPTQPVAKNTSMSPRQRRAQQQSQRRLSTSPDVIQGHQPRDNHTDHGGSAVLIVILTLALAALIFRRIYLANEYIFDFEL
UniProt P51668, sequence (whole entry, looked up): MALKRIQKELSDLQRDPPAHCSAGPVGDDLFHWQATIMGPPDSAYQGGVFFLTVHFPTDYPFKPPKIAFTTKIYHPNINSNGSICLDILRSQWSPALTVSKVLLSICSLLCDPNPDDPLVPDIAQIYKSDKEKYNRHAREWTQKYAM
UniProt P11802, sequence (whole entry, looked up): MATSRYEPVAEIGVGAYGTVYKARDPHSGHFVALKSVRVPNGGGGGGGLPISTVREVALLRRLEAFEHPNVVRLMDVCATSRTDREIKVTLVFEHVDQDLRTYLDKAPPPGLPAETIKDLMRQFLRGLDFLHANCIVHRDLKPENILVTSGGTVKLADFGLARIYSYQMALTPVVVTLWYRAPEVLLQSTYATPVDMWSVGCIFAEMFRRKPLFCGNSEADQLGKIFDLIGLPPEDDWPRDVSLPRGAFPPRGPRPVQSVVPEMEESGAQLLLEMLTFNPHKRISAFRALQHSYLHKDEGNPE

Block 1 — effect on: cell-free assay; technique: competition with immobilised ligand; concentration: 1 µM
Structure (SMILES): C[C@@]1(Cc2ccc(C#N)cc2)C(=O)N(c2cc(Cl)cc(Cl)c2)c2ncc(C(=O)NC3(c4nc(C5CCC5)no4)CC3)n21
target | remaining binding [%]
SRPK3 (Homo sapiens, UniProt Q9UPE1) | 100
SYK (Homo sapiens, UniProt P43405) | 100
ALK (Homo sapiens, UniProt Q9UM73) | 100
GSK3A (Homo sapiens, UniProt P49840) | 100
CDK4 (Homo sapiens, UniProt P11802) | 100
CSNK2A1 (Homo sapiens, UniProt P68400) | 91
LRRK2 (Homo sapiens, UniProt Q5S007, G2019S) | 100
BRAF (Homo sapiens, UniProt P15056, V600E) | 100
FLT3 (Homo sapiens, UniProt P36888, R834Q) | 100
MAP4K3 (Homo sapiens, UniProt Q8IVH8) | 78
PRPF4B (Homo sapiens, UniProt Q13523) | 91
FLT4 (Homo sapiens, UniProt P35916) | 100
MAPK4 (Homo sapiens, UniProt P31152) | 100
BRAF (Homo sapiens, UniProt P15056) | 100
RIPK2 (Homo sapiens, UniProt O43353) | 91
EPHA2 (Homo sapiens, UniProt P29317) | 56

Block 2 — technique: yeast two-hybrid; matrix: yeast; setting: mostly zero background; relative to: not given; direction: higher = stronger interaction
Sequence: ASEEEFQFLRCQQCQAEAKCPKLLPCLHTLCSGCLEASGMQCPICQAPWPLGADTP (PML RING domain (UniProt P29590))
target | lacZ reporter activity
UBE2I UBC core domain (UniProt P63279) | 0
UBE2R2 UBC core domain (UniProt Q712K3) | 0
UBE2J1 UBC core domain (UniProt Q9Y385) | 0
BIRC6 UBC core domain (UniProt Q9NR09) | 0
UBE2B UBC core domain (UniProt P63146) | 0
UBE2D1 UBC core domain (UniProt P51668) | 0
UBE2E3 UBC core domain (UniProt Q969T4) | 0
UBE2L3 UBC core domain (UniProt P68036) | 0

Block 3 — organism: Sarcocystis neurona; effect on: parasite growth; concentration: 10 µM; time: 96 h; setting: second screen; relative to: untreated
Structure (SMILES) | log2 fold change
CC=CC(=O)N(CC)c1ccccc1C (mixture of isomers) | 0.32
CO[C@H]1O[C@@H]2O[C@@]3(C)CC[C@H]4[C@H](C)CC[C@@H]([C@H]1C)[C@@]24OO3 | -1.15
C[C@H](CCC(=O)O)[C@H]1CC[C@H]2[C@@H]3[C@@H](O)C[C@@H]4C[C@H](O)CC[C@]4(C)[C@H]3CC[C@]12C | 0.26
CC(=O)OCC(=O)[C@@]1(O)CC[C@H]2[C@@H]3CCC4=CC(=O)CC[C@]4(C)[C@H]3[C@@H](O)C[C@@]21C | -0.21
CN(C)[C@@H]1C(O)=C(C(N)=O)C(=O)[C@@]2(O)C(O)=C3C(=O)c4c(O)cccc4[C@@](C)(O)[C@H]3[C@H](O)[C@@H]12 | -0.08

Block 4 — species: human; matrix: microsomes or S9; concentration: 2 µM; time: 0.5 h
SMILES | remaining compound [%]
CCC[C@@H]1CN(c2nc(N(C)C)nc3c2CCCC3)C[C@H]1NS(C)(=O)=O | 86
Cc1ccc(S(=O)(=O)c2cn(CC3CCCO3)c(=O)n(-c3ccccc3)c2=O)cc1 (stereo not drawn) | 10.4
COc1nc(Nc2ccc3[nH]ncc3c2)c(Cl)c(OC)n1 | 71.3
Cc1cc(C#N)cc(C(=O)c2c(C(C)C)c(=O)n(Cc3cc(Cl)cc(Cl)n3)c(=O)n2Cc2cc(Cl)nc(Cl)n2)c1 | 0

Repeated from above (block 1):
target | remaining binding [%]
CDK4 (Homo sapiens, UniProt P11802) | 100
SRPK3 (Homo sapiens, UniProt Q9UPE1) | 100
BRAF (Homo sapiens, UniProt P15056, V600E) | 100
